Results from different studies.
Protocols differ between the studies behind these lines. ± marks the error that the study gave.
Chain of UniProt Q12809 (whole entry, looked up): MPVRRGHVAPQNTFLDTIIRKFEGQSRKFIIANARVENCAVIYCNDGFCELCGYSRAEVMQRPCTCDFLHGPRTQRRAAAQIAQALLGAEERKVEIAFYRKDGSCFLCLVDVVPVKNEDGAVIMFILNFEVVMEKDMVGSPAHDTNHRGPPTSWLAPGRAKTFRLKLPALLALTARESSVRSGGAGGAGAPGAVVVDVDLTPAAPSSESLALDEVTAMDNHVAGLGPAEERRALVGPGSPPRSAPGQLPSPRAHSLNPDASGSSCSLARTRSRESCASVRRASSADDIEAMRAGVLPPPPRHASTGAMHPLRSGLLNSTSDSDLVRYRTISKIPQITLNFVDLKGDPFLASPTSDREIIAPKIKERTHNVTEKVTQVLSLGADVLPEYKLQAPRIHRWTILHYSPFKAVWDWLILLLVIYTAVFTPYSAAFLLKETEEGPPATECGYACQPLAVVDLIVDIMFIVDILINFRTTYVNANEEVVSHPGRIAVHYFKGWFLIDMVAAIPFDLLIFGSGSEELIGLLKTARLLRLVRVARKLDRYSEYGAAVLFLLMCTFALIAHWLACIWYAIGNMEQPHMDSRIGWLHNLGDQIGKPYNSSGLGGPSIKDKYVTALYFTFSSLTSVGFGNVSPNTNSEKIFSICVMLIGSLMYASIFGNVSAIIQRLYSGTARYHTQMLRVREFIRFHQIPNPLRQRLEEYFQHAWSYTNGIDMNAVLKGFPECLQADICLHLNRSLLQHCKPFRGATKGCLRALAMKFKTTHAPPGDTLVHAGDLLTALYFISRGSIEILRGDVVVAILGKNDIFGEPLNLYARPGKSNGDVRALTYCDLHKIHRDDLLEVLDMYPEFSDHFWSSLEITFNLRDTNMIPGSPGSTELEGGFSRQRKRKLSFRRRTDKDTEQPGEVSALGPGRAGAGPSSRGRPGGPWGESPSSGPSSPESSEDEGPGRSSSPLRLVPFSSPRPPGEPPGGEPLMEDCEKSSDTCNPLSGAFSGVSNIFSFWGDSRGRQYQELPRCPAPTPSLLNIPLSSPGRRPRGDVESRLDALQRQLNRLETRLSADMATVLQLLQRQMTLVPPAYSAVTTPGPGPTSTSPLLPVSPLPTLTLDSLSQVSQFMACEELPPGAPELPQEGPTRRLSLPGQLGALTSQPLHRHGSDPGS

Structure (SMILES) = CC(C)CCCC(C)CCN1CCn2cc(C(=O)NCc3ccc(F)cc3F)c(=O)c(O)c2C1=O (stereo not drawn); target or system = human immunodeficiency virus 1; test = single-round vector infection; system = integrase R263K; endpoint = EC50; value = 68.2 ± 8 nM
Structure (SMILES) = Cn1c(Cn2ccc(C(F)(F)F)c(Oc3cc(Cl)cc(C#N)c3)c2=O)n[nH]c1=O; target or system = HIV-1; test = viral replication, single-round infection; system = RT mutant L234I; endpoint = EC50; value = 6.8 ± 2.5 nM
Structure (SMILES) = COCC(C)n1ccn2cc(C(=O)NCc3ccc(F)cc3F)c(=O)c(O)c2c1=O (stereo not drawn); target or system = human immunodeficiency virus 1; test = single-round vector infection; system = integrase G118R; endpoint = EC50; value = 21.5 ± 1.3 nM
Structure (SMILES) = Cn1cnc(Cn2c(=O)[nH]/c(=N\c3cc4cn(C)nc4cc3Cl)n(Cc3cc(F)c(F)cc3F)c2=O)n1; system = human, normal renal function; setting = oral, 375 mg; endpoint = treatment-related TEAE, Mild severity; value = 0%
Structure (SMILES) = NC(=O)c1ncn([C@@H]2O[C@H](CO)[C@@H](O)[C@H]2O)n1; target or system = Japanese encephalitis virus; test = viral replication; system = BHK-21; setting = 72 h; endpoint = EC50; value = 33000 nM
Structure (SMILES) = CC(=O)c1c(O)c(C)c(O)c(Cc2c(O)c3c(c(C(=O)/C=C/c4ccccc4)c2O)OC(C)(C)C=C3)c1O; target or system = KCNH2 (Homo sapiens, UniProt Q12809); test = ion current, whole-cell patch clamp; system = HEK293 expressing hERG1; setting = 15 µM, at -120 mV; endpoint = fast deactivation time constant; value = 57 ± 5 ms
Structure (SMILES) = O=C(NCc1ccc(F)cc1F)c1cn2c(c(O)c1=O)C(=O)NCC2; target or system = human immunodeficiency virus 1; test = single-round vector infection; system = integrase R263K; endpoint = EC50; value = 184 ± 36.5 nM
Structure (SMILES) = Cc1ccccc1CN1C(=O)c2ccccc2Sc2ccc(C(=O)NCCCN3CCOCC3)cc21; target or system = SARS-CoV-2; test = cytopathic effect; system = USA_WA1/2020; setting = round 1, 5-point; endpoint = maximum response; value = 65.6%
Structure (SMILES) = CC(C)(C)[C@H](NC(=O)C(F)(F)F)C(=O)N1C[C@H]2[C@@H]([C@H]1C(=O)N[C@H](C#N)C[C@@H]1CCNC1=O)C2(C)C; system = human, fasted; setting = oral, 500 mg single dose, 28 days, no ritonavir; endpoint = participants with adverse events; value = 1%
Structure (SMILES) = CC[C@H](C)[C@H](NC(=O)[C@H](CC(C)C)NC(=O)[C@H](Cc1c[nH]c2ccccc12)NC(=O)[C@H](CCC(N)=O)NC(=O)[C@@H](NC(=O)[C@H](Cc1ccccc1)NC(=O)[C@H](C)NC(=O)[C@H](CCCCNC(=O)COCCOCCNC(=O)COCCOCCNC(=O)CC[C@H](NC(=O)CCCCCCCCCCCCCCCCCCC(=O)O)C(=O)O)NC(=O)[C@H](CCC(N)=O)NC(=O)[C@H](C)NC(=O)[C@@H](NC(=O)[C@H](CCCCN)NC(=O)[C@H](CC(=O)O)NC(=O)[C@H](CC(C)C)NC(=O)C(C)(C)NC(=O)[C@@H](NC(=O)[C@H](CO)NC(=O)[C@H](Cc1ccc(O)cc1)NC(=O)[C@H](CC(=O)O)NC(=O)[C@H](CO)NC(=O)[C@@H](NC(=O)[C@H](Cc1ccccc1)NC(=O)[C@@H](NC(=O)CNC(=O)[C@H](CCC(=O)O)NC(=O)C(C)(C)NC(=O)[C@@H](N)Cc1ccc(O)cc1)[C@@H](C)O)[C@@H](C)O)[C@@H](C)CC)[C@@H](C)CC)C(C)C)C(=O)N[C@@H](C)C(=O)NCC(=O)NCC(=O)N1CCC[C@H]1C(=O)N[C@@H](CO)C(=O)N[C@@H](CO)C(=O)NCC(=O)N[C@@H](C)C(=O)N1CCC[C@H]1C(=O)N1CCC[C@H]1C(=O)N1CCC[C@H]1C(=O)N[C@@H](CO)C(N)=O; system = healthy subjects, single ascending dose; setting = 1.0 mg, titre increase ≥4-fold; endpoint = treatment-boosted ADA positive subjects; value = 0%
Structure (SMILES) = COC(Cn1ccn2cc(C(=O)NCc3ccc(F)cc3F)c(=O)c(O)c2c1=O)OC; target or system = human immunodeficiency virus 1; test = single-round vector infection; system = integrase R263K; endpoint = EC50; value = 4.4 ± 0.2 nM
Structure (SMILES) = CC(Nc1nc(N2CCNCC2C)nc2ccccc12)c1ccccc1 (stereo not drawn); target or system = SARS-CoV-2; test = cytopathic effect; system = USA_WA1/2020; endpoint = AC50; value = 14.1 µM
Structure (SMILES) = O=C1Nc2ccc(Cl)cc2[C@@](C#CC2CC2)(C(F)(F)F)O1; target or system = HIV-1; test = viral replication, single-round infection; system = RT mutant M184I; endpoint = EC50; value = 0.2 ± 0.04 nM
Structure (SMILES) = NC(=O)CCNC(=O)c1ccccc1S; target or system = HIV-1; test = viral replication; system = human PBMC, subtype G G3, CCR5-tropic clinical isolate; endpoint = EC50; value = 3940 ± 400 nM
Structure (SMILES) = Cc1cc(/C=C/C#N)cc(C)c1Nc1nc(Nc2ccc3cc(C#N)ccc3c2)ncc1N; target or system = HIV-1; test = viral replication, single-round infection; system = RT mutant V106A/F227L; endpoint = EC50; value = 18.7 ± 2.1 nM
Structure (SMILES) = Nc1ncnc2c([C@@H]3N[C@H](CO)[C@@H](O)[C@H]3O)c[nH]c12; target or system = Zaire ebolavirus; test = viral replication, inhibitor; system = human Macrophage; setting = 1.6 µM; endpoint = inhibition; value = 1.2%
Structure (SMILES) = C[C@H](NP(=O)(OC[C@@]1(F)O[C@@H](n2ccc(N)nc2=O)C(F)(F)[C@@H]1O)Oc1ccccc1)C(=O)OCc1ccccc1 (stereo partly drawn); target or system = varicella-zoster virus; test = viral replication, plaque reduction; system = HEL fibroblasts, Oka, TK+; endpoint = EC50; value = 2000 to 3000 nM
Structure (SMILES) = CC(C)(C)[C@H](NC(=O)C(F)(F)F)C(=O)N1C[C@H]2[C@@H]([C@H]1C(=O)N[C@H](C#N)C[C@@H]1CCNC1=O)C2(C)C; target or system = Norovirus; test = viral replication; system = HG23 replicon cells; setting = 96 h; endpoint = EC50; value = > 10000 nM
Structure (SMILES) = CC(C)=CCC/C(C)=C/Cn1ccn2cc(C(=O)NCc3ccc(F)cc3F)c(=O)c(O)c2c1=O; target or system = human immunodeficiency virus 1; test = single-round vector infection; system = integrase R263K; endpoint = EC50; value = 122 ± 5.5 nM
Structure (SMILES) = Cc1cc(/C=C/C#N)cc(C)c1Nc1nc(Nc2ccc(/C=C/C#N)cc2)ncc1N; target or system = HIV-1; test = viral replication, single-round infection; system = RT mutant K101E/M184I; endpoint = EC50; value = 3.1 ± 0.6 nM
Structure (SMILES) = CNC(=O)[C@@H](NC(=O)[C@H](CC(C)C)[C@H](O)C(=O)NO)C(C)(C)C; target or system = human fibrinogen; test = SDS-PAGE; system = Daboia russelii; setting = concentration not given, unit not given, together with: MP venom; how to read = baseline: untreated fibrinogen; endpoint = remaining fibrinogen Bβ chain; value = 0.842
Structure (SMILES) = CCCC(=O)OCSc1ccccc1C(=O)NCCC(N)=O; target or system = HIV-1; test = viral replication; system = human PBMC, subtype E 93TH073, dual-tropic clinical isolate; endpoint = EC50; value = 1850 ± 1240 nM
Structure (SMILES) = Cc1cc2cc(C#N)ccc2c(C)c1Nc1ccnc(Nc2ccc(C#N)cc2)n1; target or system = HIV-1 K103N/Y181C; test = viral replication; system = T-cells; endpoint = EC50; value = < 10 nM
Structure (SMILES) = Cc1cc(/C=C/C#N)cc(C)c1-n1cnc2cnc(Nc3ccc(/C=C/C#N)cc3)nc21; target or system = HIV-1; test = viral replication, single-round infection; system = RT mutant V106A/F227L; endpoint = EC50; value = 11.2 ± 2.2 nM
Structure (SMILES) = O=C(NCc1ccc(F)cc1F)c1cn2cc[nH]c(=O)c2c(O)c1=O; target or system = human immunodeficiency virus 1; test = single-round vector infection; system = integrase R263K; endpoint = EC50; value = 54.2 ± 2.7 nM
Structure (SMILES) = Cc1cc(/C=C/C#N)cc(C)c1-n1cnc2cnc(Nc3ccc4cc(C#N)ccc4c3)nc21; target or system = HIV-1; test = viral replication, single-round infection; system = RT mutant V106A/F227L; endpoint = EC50; value = 28.1 ± 1.9 nM
Structure (SMILES) = Cc1cn([C@H]2C[C@H](N=[N+]=[N-])[C@@H](CO)O2)c(=O)[nH]c1=O; target or system = HIV-1; test = viral replication; system = human PBMC, subtype F 93BR020, dual-tropic clinical isolate; endpoint = EC50; value = 7.64 ± 1.56 nM

For quick reference, copied from above:
Structure (SMILES) = COCC(C)n1ccn2cc(C(=O)NCc3ccc(F)cc3F)c(=O)c(O)c2c1=O (stereo not drawn); target or system = human immunodeficiency virus 1; test = single-round vector infection; system = integrase G118R; endpoint = EC50; value = 21.5 ± 1.3 nM
Structure (SMILES) = NC(=O)c1ncn([C@@H]2O[C@H](CO)[C@@H](O)[C@H]2O)n1; target or system = Japanese encephalitis virus; test = viral replication; system = BHK-21; setting = 72 h; endpoint = EC50; value = 33000 nM
